Measurements from different studies.
Every numbered part comes from another study and shows a few of its results, in no order.

Series 1 — method: RNA Bind-n-Seq; form: RNA; sample: in vitro; concentration: 200 nM; notes: whole 134-nt RNA, ends assumed; together with: 150 mM KCl; baseline: input library; reading: higher = stronger binding
Target: Fragile X messenger ribonucleoprotein 1, C-terminal low-complexity region (Fmr1, Mus musculus, UniProt P35922)
Shared flanks, not repeated: GGGAGUUCUACAGUCCGACGAUC … UGGAAUUCUCGGGUGUCAAGG
Sequence	log2 enrichment
UGGCCCUGGUGGCAUGCGGGGAGGAAGAGGUGGCCUCAUGGCUCGUGGUGGUCCCGGUGGAAUGUUCAGAGGUGGCCGUGGUGGAGACAG	-0.0342
UCCUCAAGUCCUGUGCUACACAUCGUAUGUACCGAAUCGGAGGUGGUUUGGAAAGUAUUAUGUUACGCCGUUCGGAUCUGCACUUCCAGC	-0.563
UGGGAGGUGGAUUUUGUUUAUUUUUUUAGCUCAUUUACAGGGGUGGGAAUUUUUUUUUAAUAUGUGUCAUGAAUAAAGUUGUUUUUGAAA	0.201
CAAGUCCUGUGCUACACAUCGUAUGUACCGAAUCGGUUUUUUUGGUGGUUUUUGGAAAGUAUUAUGUUACGCCGUUCGGAUCUGCACUUC	-0.622
UCAAGUCCUGUGCUACACAUCGUAUGUACCGAAUCGGUUUGGUGGUUUUUUUGGAAAGUAUUAUGUUACGCCGUUCGGAUCUGCACUUCC	-0.439
ACCAUGCAGGUGGGCAUCUUUGGGAAGUGGGGCAAGGGGGGGAUAAGGAGGGGGGUAACACUUUGGGAACAGGUGGUCCCAGGUCGUUUC	0.337
UGGCCCUGGUGGCAUGCGGGGAGGAAGAGGUGGCCUCAUGGAUCGUCGUGGUCCCGGUGGAAUGUUCAGAGGUGGCCGUGGUGGAGACAG	0.0282
CAAGUCCUGUGCUACACAUCGUAUGUACCGAAUCGGCCCGGGCCCGGGGCCCGGGGAAAGUAUUAUGUUACGCCGUUCGGAUCUGCACUU	-0.816
CAAGUCCUGUGCUACACAUCGUAUGUACCGAAUCGGGUGGGUGGGAAAAAAAGGGAAAGUAUUAUGUUACGCCGUUCGGAUCUGCACUUC	0.513
CACAGACAACACGCACCCACACAGACACAGAGGGAAGGGGUUGGGAUGGGGACAGGGUGCACAGCAGGGCGGGGUAGGACCCAAGCCCCU	1.33
UGGGAGGUGGAUUUUGUUUAUUAUUUUAGCUCAUUUCCAGGGGUGGGAAUUUUUUUUUAAUAUGUGUCAUGAAUAAAGUUGUUUUUGAAA	0.19
AAGUCCUGUGCUACACAUCGUAUGUACCGAAUCGGUUUUUUUGGAGGAAAAAAAGGAAAGUAUUAUGUUACGCCGUUCGGAUCUGCACUU	-0.938
UCAAGUCCUGUGCUACACAUCGUAUGUACCGAAUCGGGGUUGGGUUGGGGUUGGAAAGUAUUAUGUUACGCCGUUCGGAUCUGCACUUCC	0.408
UCAAGUCCUGUGCUACACAUCGUAUGUACCGAAUCGGGUGGGUUUGGGUUUGGGAAAGUAUUAUGUUACGCCGUUCGGAUCUGCACUUCC	1.32

Series 2 — method: RNA Bind-n-Seq; form: RNA; sample: in vitro; concentration: not given; notes: RNA with constant flanks, ends assumed; baseline: input RNA pool; reading: higher = stronger binding
Target: RING finger protein unkempt homolog, zinc fingers 1-6, GST-SBP tag (UNK, Homo sapiens, UniProt Q9C0B0, residues 30-357)
Sequence of UniProt Q9C0B0 (30-357, looked up): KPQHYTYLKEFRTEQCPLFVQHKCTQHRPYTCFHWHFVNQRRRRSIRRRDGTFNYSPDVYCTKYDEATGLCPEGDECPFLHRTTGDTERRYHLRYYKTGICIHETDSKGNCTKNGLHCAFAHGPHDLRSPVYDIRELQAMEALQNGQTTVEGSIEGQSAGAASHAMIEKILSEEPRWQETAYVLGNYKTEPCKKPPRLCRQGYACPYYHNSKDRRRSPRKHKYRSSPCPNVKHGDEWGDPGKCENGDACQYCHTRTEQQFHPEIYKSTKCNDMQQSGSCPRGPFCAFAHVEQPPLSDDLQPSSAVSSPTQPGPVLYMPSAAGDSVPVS
Shared flanks, not repeated: GGGAGUUCUACAGUCCGACGAUC … CAACAGAGGAUUGAGCAUCA
Sequence	bound/input enrichment
CAACAAAAGAUAAACAAAUUUGCACGGAAUACAAGUAGAAUCACAGAGCUGAAGGAAGAAACCGAAGUAAAAAAGAAACAACUCCAAAACCUAGAAGAUGCUUGUGAUGACAUCAUGCUU	0.442 ratio
GGAAGAGGUGGUGACCAGCAGAGUGGUUAUGGGAAGGUAUCCAGGCGAGGUGGUCAUCAAAACCGCUACAAACCAUACUAAAUUAUUCCAUUUGCAACUUAUCCCCAACAGGUGGUGAAG	0.532 ratio
GGAUUCCGGUUCCGGUGGGCCUCCAUCAGCAAGCUCCAGUGCUACGUGUCCCUGGCAUUUCCGGUGUCGGUUGGGUAGGCAGUCAUGGAUCAGGUAAUGCAGUUUGUUGAGCCAAGUCGG	0.202 ratio
UUUUGGAAACAGUUCAGGCUUUGGGGUGAGCCUGUUAAUCUGCGUGAACAACACGAUGCUUCCGAAUUUUUUAAUUCAUUGGUGGAUAGUUUAGAUGAAGCUUUAAAAGCUUUAGGACAU	1.5 ratio
AAGAAUCUGAGGACCCGACACCUACAAAUUUGCCGUUAUUCCCACUUCUUGAUGAAGGAACCGCCCGAUGAACAAAGUGUUCUGCAGAGGCCUUUUAUGUGUUUAUGUGGUCCUCAAAGA	0.148 ratio
UUAGGCACAGCUGACAUGGCCACUUUCAUGGUCAAUUCACUAUAUAUGAUGAAGACAACAUCCGCUCUAUUUGAAUUCACUGACAGACGUCUGGAAAUGCUACAGUUUCAGAUCGAAGCA	0.347 ratio
AUAGUAUGUGAUCCUGUAUAACAGACUGAGUCUAUUUAUAUUUUCUUUUUUUUAAGACUGUCCCGAAAUUUUGUGUAUUAUGAGGGGAAAAAAGGAAAAGCUUGAAUCUGUGUAGUCUCU	0.533 ratio
AUGAUGGGCCACGGAUCUGACUACUCACUCAGUGAAGUGCUGUGGGUCUGUGCCAACCUCUUCCGUGAUGUCCAAUUCAAGAUGAGUCAUAAGAGGAUCAUGCUGUUCACCAAUGAAGAC	0.107 ratio
GGACCGUGCCCUAGAAUUUGCCCCUGCCUGCCAUCGCUUCAAAAUCCUCAAGGCAGAAUGUUCCGCAAUGCUGGGUCGUUAUCCAGAAGCACAGUCUGUGGCUAGUGACAUUCUACGAAU	0.25 ratio
GGGAGCGCAGAGCGGCCUUUCCAGCAUGCAGCGGCUGCUCAGAGUAUAGAAAUAUCAAGAAACCGGAGAGAAUUCAACCAUGGCCCCACGGAAGAGAGGCGGCCGGGGGAUUUCAUUUAU	0.44 ratio
AUCCAGGCAGCUGACAGCACAGCCGUGAAUGGCAGCAUCACACCCACAGACAAAAAGACCGGAUUUUUGGGCCUUGGUCUCAUGGGAAGUGGAAUCGUCUCCAACUUGCUAAAAAUGGGU	0.14 ratio

Series 3 — method: protein binding microarray; form: double-stranded DNA, one strand shown; sample: in vitro; concentration: not given; baseline: not given; reading: higher = stronger binding
Target: Histone acetyltransferase KAT6A, winged helix 2, GST fusion (KAT6A, Homo sapiens, UniProt Q92794, residues 85-181)
Notes: 8-mer, flanks averaged, mean of 2 arrays, mostly near background
Residues (chain): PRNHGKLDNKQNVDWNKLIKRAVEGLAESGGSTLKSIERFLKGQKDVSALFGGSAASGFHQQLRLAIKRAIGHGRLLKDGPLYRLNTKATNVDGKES
Sequence	E-score
ACCAGCCG	0.1
CTATCGCC	-0.037
AAAAGGAC	0.0356
CCCGCAAC	0.215
CATGCCAC	0.0101
GACATTAA	-0.0855
CTAACTCC	-0.0975
ACGTAACT	-0.311
CGAAGCAC	0.0769
ACGGGCCT	0.0802
AATGTACG	-0.161
CTCTTATC	-0.116
CAGAGCAG	0.155
CGCTAAAC	0.155
CTTGCAGC	0.106
AACCTCGA	0.166
AATCATCG	-0.0234

Series 4 — method: RNA Bind-n-Seq; form: RNA; sample: in vitro; concentration: 365 nM; baseline: no-protein control; reading: higher = stronger binding
Target: RNA binding protein fox-1 homolog 2, RRM domain, GST-SBP tag (RBFOX2, Homo sapiens, UniProt O43251-10, residues 100-194)
Notes: natural RNA segment, single round, ends assumed
Shared flanks, not repeated: GGGAGUUCUACAGUCCGACGAUC … UGGAAUUCUCGGGUGCCAA
Target sequence (chain): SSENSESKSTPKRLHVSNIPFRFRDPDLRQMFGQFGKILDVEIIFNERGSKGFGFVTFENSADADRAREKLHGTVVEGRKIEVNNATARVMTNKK
Sequence	RBNS enrichment (R)
GAGUUAAUUUUGACUUUGUUAGAUGAGGGAGGAAAACUCAACUGUUUCUCUUUGUUAUCUAAAUGUUUCAGAAUUCAAUCGUGAAGGAACAGGCAUUUUACACUAUGAAG	0.374
CACUCCAGAACGGCCACGGGUUUCCCAGAGUUCUAUGGUCUUCCCAAGAGAAUUUUUAAUUGUAAAUGCAGACUUGGGAAGGACUUGGACUUUUAACCUGGUUUUGCUUU	0.488
UUGUGGUAGAAGGGCAGGAGGCCCCAAGGUUGGAAAUAAGAGGGUUCCCACCCAGAACCCUUCUUGUGAGAGAUGCGCACUUUAAAGGGUGAUUUUGUUCCAGAUGUCUA	1.15
UAGAUGAUAUAACAAAGAAAGCAUGCUUUCUGAGGAGAUAGUGGGGAUAAUCCCUGAAGAGUUGGCAGUGUGAGUGCAACUCAUUUAUCUUCUGUGAGGUGGGAUUUUUG	5.07
GUGAAACUGAUAGGUCUUGAUCUGCUUUCUUAGAUCACUGAUUCAGAGCUCAAAGCCCAGGUUCAGGGUAAGAAUUUGUAAUACAGAAGAAGAAAGACUCCCUUCACUUU	1.57
UCUACUGUUUUAAUGAGAUUUAACAGCUUUUAACAGUGAGUUUCGUUUGUAAACUGCUUGAAGUCUGUGGCAUUCAGGCACACGUCUGGCUGGCCGGCUGGGUCUCCUCC	0.277
ACCCCCUGUCAGAAGGUACCGUCGCAUAUCCAUGUGAAGCAGACGACUCCCUGCUUGCCGCACACACCUCGGACAGUGAGCAACCCAGGCUCUGCCGUGUUCAGACGUCG	0.648
GUAUGUUUGUAUAUGUAGGACAAUAAGUUCCUUCUGACACAAGGGAGACACGAGAAGGAUAGCCUGACAUCAGAUGACAGACUGGAGGACUGUAGCACAUCUCUGGGCGU	0.823
UUACUGCUACUUUCAUGUUGCUUUCUAGAAAACAGCAUUUCAUUCCAAAAUAACUAGGAUCUGCAUUUAGAACAAGAAUCAUUAUUUGUCCUGACCUUUUCAGUCCUACA	0.368
CAAAAUGGCAUCUUUCCUCCCAAACUGGGAGCCAAAUUCUGCAGAAAUCAUGGACAGUAAAUGGUGACAGAUGUCUGAAGGGGUCUCAAAGAUGCAAGGGAACAUGGGGU	0.571
CCUGCUCCACACCCCUAUUUUCCUCUUAAUAAUACGUUUGGGUGAAGACAAAUUAGUGUUUAGUAAUUGCAUCAUCUCUGUGCUUACCUAUACAAACAUAAGUUUAUUUU	0.396
CAAAUAUCCUAAAAUAGGAAAUACUUGAACGUUUUAAUGAGAAAUUUCUAUGGUUGAAAUUCAUAGCCUUUCACUAUAGGAAAUGUUAAGAAAAAUUUAAACAGUUUAAG	0.627

Some of these lines once more (series 4):
Sequence	RBNS enrichment (R)
GUAUGUUUGUAUAUGUAGGACAAUAAGUUCCUUCUGACACAAGGGAGACACGAGAAGGAUAGCCUGACAUCAGAUGACAGACUGGAGGACUGUAGCACAUCUCUGGGCGU	0.823
CAAAAUGGCAUCUUUCCUCCCAAACUGGGAGCCAAAUUCUGCAGAAAUCAUGGACAGUAAAUGGUGACAGAUGUCUGAAGGGGUCUCAAAGAUGCAAGGGAACAUGGGGU	0.571
CAAAUAUCCUAAAAUAGGAAAUACUUGAACGUUUUAAUGAGAAAUUUCUAUGGUUGAAAUUCAUAGCCUUUCACUAUAGGAAAUGUUAAGAAAAAUUUAAACAGUUUAAG	0.627
UUACUGCUACUUUCAUGUUGCUUUCUAGAAAACAGCAUUUCAUUCCAAAAUAACUAGGAUCUGCAUUUAGAACAAGAAUCAUUAUUUGUCCUGACCUUUUCAGUCCUACA	0.368
